Assay results pooled from the literature.
Every numbered part comes from another study and shows a few of its results, in no order.

Set 1
Target: RNA binding protein fox-1 homolog 2, RRM domain, GST-SBP tag (RBFOX2, Homo sapiens, UniProt O43251-10, residues 100-194)
Method: RNA Bind-n-Seq
Molecule type: RNA
Sample: in vitro
Concentration: 365 nM
Notes: natural RNA segment, single round, ends assumed
Reference: no-protein control
Reading: higher = stronger binding
Shared flanks, not repeated: GGGAGUUCUACAGUCCGACGAUC … UGGAAUUCUCGGGUGCCAA
Residues (chain): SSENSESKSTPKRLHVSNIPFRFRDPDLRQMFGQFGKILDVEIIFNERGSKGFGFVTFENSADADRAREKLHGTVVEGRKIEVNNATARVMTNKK
Oligonucleotide | RBNS enrichment (R)
UGAGCCCCUUACAGAUAAGCACCGGUGUCUCUUUGGUGCACCUUGCCUUCAGAUGCUCCUGGUGGUCAGCUCAACUAGCAAGACCCUAGUCCCCUGUUCCAAAGCCAUCU | 0.25
UCCUUGAACCCAGCCCCGUGAACAAUCUAUCAUAGGACUUUCAGGUAUUUUUACUUUUAUUUUUUGAUCUGAACUGGGAGCUAUAUUUAGCCCUCUGCCUCUCCAAAGCA | 0.497
CAUAACUAUUUUUAAUAUGGGUCAUUCUUAGCAUGAUUUGUAAAGGUCUCAGGCAAACAGUUGUUGAAGCUUGCUUCUGUGGCAUUUCUGAAUUGUGGCAGAGCUUAGAU | 1.12
GGAUGGGAAGGAGCAGCCAGGCGUGGGAAGCGGCGAGAUCCUCGGGCUGGGGGUGCCCACGUUUGCUACCUCCCACUGUGAAAUCGCUGGUGCUCACAAUUGUCUCUCAC | 1.1
CGCUGUUUCCUGCACUUAAGCCUUGGCAGGAGCCAAGGUCUAUGGUUUUUUGAGAUGAAGCAUUUGUUACAGAUAAUUGGGUAGAGUGGAGUGUAUCUGCUUAAGGGGUG | 0.621
UGAGCCCGCUGGCCUCACUGGGGUGUCAGGGCUGGGCCCAGGGAUUGCUAUUUUCACGUAGGCCCUUGUCCUUGGAUACCCAGGGGAGGGAGCCACUGUCGCCGCAGCAC | 0.342
AAGGACCAGCACACUGGUGGCCAUUUUCUGCACAAGCAAAUGGAAUUGCUUUUUUUCAGCAUCCCAAUUGUUAUAGGUUGCUCCUGAUAGAGGUAGCCACAGUCCUGGAG | 0.363
CACCAAAUAUCUCGCAACUUUAUUUCAUCUGGUGUAAAUCUGAACAUCAACAUAGGAAAACUGUCAUGAGAAAAUGAAAAAGCAUAAACACAGAAGCAACGAGAAAUGUG | 1.43
AAAACGACUCCAAAGUUAGACCUGCCUGUUGGGGAGAAUUCUAUAGACAGAAGGUCAAUGUUGUCCCCAUCCAUAGGGGUUGAAUUACCUUGCUGUUAAGUGGUCUUCCC | 0.328
UGUAGUUGCUUAUUCUUUCUGCCUUCUGCUUCAGCGUGAGGCUUCUUUGGUUUUCUGUGGCAGCGUCUCCCUUCUCAUUGUUUCUCUGUGUUUUAGUGGGGAUAGUACCA | 0.481
UCUGUUUCAAAUUGGGCUGACCGUAAAAGCAAUUUUGAUGUCUUUCAAACUACCAUAAAGGGAUUUUAACUGUAUUUUUAUUCUUAGAAACAAUACACCUUUAAACAGAU | 0.545
UGCCUUGAAAAAUGACAAUUGUGAACACGAUAGUUAACUGUACUACUUUUUAAGCUGUUGUUAUGCAAAUCUUGAAGAAGUUACUGGCAUGGUUGUUGCAUAUAGUAAAA | 2.14

Set 2
Target: Fragile X messenger ribonucleoprotein 1, C-terminal low-complexity region (Fmr1, Mus musculus, UniProt P35922)
Method: RNA Bind-n-Seq
Molecule type: RNA
Sample: in vitro
Concentration: 200 nM
Notes: whole 134-nt RNA, ends assumed
Together with: 150 mM LiCl
Reference: input library
Reading: higher = stronger binding
All molecules: 7-deaza-guanosine replaces G
Shared flanks, not repeated: GGGAGUUCUACAGUCCGACGAUC … UGGAAUUCUCGGGUGUCAAGG
Oligonucleotide | log2 enrichment
UCUAUUCAUAAGAACCCCAACACAUCGGAGCCCCAACACCUGUUGGUGAUGAAGGGCGCCCCAGAAAGGAUCCUAGACCGUUGCAGCUCU | 2.06
CUGUGCUACACAUCGUAUGUACCGAAUCGGAAAAAAAGGGAAAAAAAGGGGAAAAAAAGGGGAAAGUAUUAUGUUACGCCGUUCGGAUCU | 0.215
UGUAUCCCUGUUUCUUUUCUCCCUACAGAAACAUAUGAGGAUUUUGAUACCAGGAUACUUGAGGUAGGCAUGCAGAAUUAAAUACCUGGU | -0.0915
UGGCCCUGGUGGCAUGCGGGGAGGAAGAGGUGGCCUCAUGGAUCGUGGUGGUCCCGGUGGAAUGUUCAGAGGUGGCCGUAGUGGAGACAG | -0.661
UGUGUUGUGCUCAUUACCAGUGCAGCGACUGCCGUCCCAGGGUGACUCUGAGUUGUCCUUUAUCGUGAGCUAGCAAUGGCUAGCGAAGAC | -2.54
UAACUUUAGAGGAGGAUCUGAUGGAUAUGGCAGUGGACGUGGAUUUGGGGAUGGCUAUAAUGGGUAUGGAGGAGGAUCUGGAGGUGGCAA | 0.904
UGGGAGGUGGAUUUUGUUUAUUAUUUUAGCUCAUUUCCAGGGGUGGGAAUUUUUUUUUAAUAUGUGUCAUGAAUAAAGUUGUUUUUGAAA | -0.439
AGUCCUGUGCUACACAUCGUAUGUACCGAAUCGGGGUUUUUGGGGAGGGGUUUGGGGAAAGUAUUAUGUUACGCCGUUCGGAUCUGCACU | -0.772
CUGUGCUACACAUCGUAUGUACCGAAUCGGGGUUUUUUGGGGUUUUUUGGGGUUUUUUGGGAAAGUAUUAUGUUACGCCGUUCGGAUCUG | 1.05
CACAGACAACACGCACCCACACAGACUCAGAGGGAAGGGGUUGGGAUGGGGACAGGGUGCACAGCAGGGCGGGGUAGGACCCCAGCCCCU | 0.419
ACUUUGUCAGAUAUUGCUAGGGACCAGUGAGAUAGAUAAUCCAAAAAUAAUAAUUUGACUUUGGUUGAGUAUGUCAUUACCACAGUGUUA | -2.2

Set 3
Target: Sal-like protein 4, full length isoform B (SALL4, Homo sapiens, UniProt Q9UJQ4-2, residues 1-616)
Method: universal PBM
Molecule type: double-stranded DNA, one strand shown
Sample: in vitro
Concentration: not given
Notes: 8-mer, flanks averaged, mean of replicates
Reading: higher = stronger binding
Construct (chain): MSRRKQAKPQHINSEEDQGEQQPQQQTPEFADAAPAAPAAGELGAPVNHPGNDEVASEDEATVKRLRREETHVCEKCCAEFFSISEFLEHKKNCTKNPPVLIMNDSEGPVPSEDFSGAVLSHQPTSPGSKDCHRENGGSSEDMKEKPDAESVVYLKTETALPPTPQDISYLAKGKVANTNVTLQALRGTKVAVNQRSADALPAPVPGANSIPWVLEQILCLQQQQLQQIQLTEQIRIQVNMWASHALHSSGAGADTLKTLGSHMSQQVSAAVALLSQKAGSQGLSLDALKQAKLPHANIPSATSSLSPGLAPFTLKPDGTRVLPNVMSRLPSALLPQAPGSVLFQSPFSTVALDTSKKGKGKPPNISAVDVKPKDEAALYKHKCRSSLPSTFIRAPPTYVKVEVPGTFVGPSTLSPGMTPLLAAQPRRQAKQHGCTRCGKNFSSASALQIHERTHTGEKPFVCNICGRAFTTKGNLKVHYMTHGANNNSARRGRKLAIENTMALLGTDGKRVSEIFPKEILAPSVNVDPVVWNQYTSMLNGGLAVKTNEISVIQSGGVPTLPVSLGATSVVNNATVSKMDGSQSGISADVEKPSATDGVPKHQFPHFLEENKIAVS
Oligonucleotide | E-score
GCTTTTCA | 0.066
CACCTCTC | -0.111
CATGTTTC | 0.126
ATAACAAA | 0.334
GCCCTGTA | -0.0654
CGTGTCGA | -0.179
CGCGTCAC | -0.119
ATATGAGC | 0.264
ACTTCAAC | 0.0818
ACCCGTCT | -0.171
AGGGGCAT | 0.0217
ACCCTAGG | -0.107
CGCGATCC | -0.111
GGTCTGCA | -0.206
ACAGTAGT | 0.111
ACCCACTG | -0.181
GCCCACTA | -0.0851
GGACCTGA | -0.203
AAAAATAC | 0.231
ATGTGACG | 0.00454
AACTGGGT | -0.179
CTGTAGGC | -0.0476
AAATCTTA | 0.251

Set 4
Target: RING finger protein unkempt homolog, zinc fingers 1-6, GST-SBP tag (UNK, Homo sapiens, UniProt Q9C0B0, residues 30-357)
Method: RNA Bind-n-Seq
Molecule type: RNA
Sample: in vitro
Concentration: not given
Notes: RNA with constant flanks, human-mouse chimeric sites, ends assumed
Reference: input RNA pool
Reading: higher = stronger binding
Shared flanks, not repeated: GGGAGUUCUACAGUCCGACGAUC … CAACAGAGGAUUGAGCAUCA
Residues (chain): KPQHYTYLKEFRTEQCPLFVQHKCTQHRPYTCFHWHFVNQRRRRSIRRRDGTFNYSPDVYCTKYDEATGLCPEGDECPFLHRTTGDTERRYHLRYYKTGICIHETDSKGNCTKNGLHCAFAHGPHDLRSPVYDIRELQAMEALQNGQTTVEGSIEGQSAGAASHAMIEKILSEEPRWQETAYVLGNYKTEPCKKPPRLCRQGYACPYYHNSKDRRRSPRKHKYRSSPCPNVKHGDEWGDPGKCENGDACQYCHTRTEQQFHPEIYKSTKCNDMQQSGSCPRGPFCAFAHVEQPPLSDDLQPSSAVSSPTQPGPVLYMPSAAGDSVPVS
Oligonucleotide | bound/input enrichment [ratio]
UGACAAGGGCACUGCAGAGCCAUGCCUUUCCUUGACAUACAGAAAAAGCUGGGCAUCAACAUAGAUCGGCACUUUAUGUUCCUAAGCGCAGAACAGCCCUAUAAGAAGGCUGGUCGAUGC | 0.121
GUAAUGUUUAUUCAUUUAACUUAUUUUUAUAGCUAGAUAAAUAUUGUUAGUCUUAGACAAUAGCUCACAUUUUUUGAAAAGCAUGCUCUCCCUGUCCAUUUGUCUUAUAACAUGACCCAG | 31.8
UCUGGUCACACUCGUGUGUAUGGUGUUUGCUUUGUUGACACUUCACUGGGCAAGUUUUUCAUCGGCCAGUUUUCGGAUGACCGCCACUGUUCCAGAUUUAGGACGCUAGUGGCUCACUAU | 0.228
AACAGAUUUCUCAAGCACAUUCCAAGCGAGAAUGCUGGGGUGAUCAUUGUUGCCCAUAUAUAGUAAUACUGAGCUUUAAUGCUGUUCCAUGUUACAUCUUUCCUUCACUCCAGAAUUGUU | 0.512
UAACCACAUCAAGAUGGUUGGGAAGCUGAAGCAGAACUUACUCUUGGCGUGUCUGGUGAUUAGUUCUGUGACUGUGUUUUACCUGGGCCAGCAUGCCAUGGAGUGCCAUCACCGGAUAGA | 0.278
GUAGCUGGGACUACAGAAAUGCUGGUAAUUUCAGUCACUUGCUGAUGACUUCUGAUGACCUAGCAAAUGUUGGCAUUGUUGACUGCUGAGAAGAUACACUCGCAAGGCCACGUCUAAGGU | 0.0978
AUCCCAAUUAUGGACACCGGUGAAAACCCAGAGGUUCCCUUCCCCCGGGACAUGAUCGACUUAGAGGCCAAUUUUGAGAAGAUUGAAAAUGAACUGAAGGAAAUCAACACAAACCAGGAA | 0.23
GGAAGUACAUUAAUGGAGAUUGAUGGUGAUAAAGGCAAGCAGGGCGGGCCCACCUACUACAUAGACACCAAUGCCCUCCGCGUGCCCAGGGAGAACAUGGAGGCCAUCUCACCACUCAAG | 0.23
GAAAGAGAACUAAAGCAACUAAUAGAGAAGAGGAUUGGCAAAGAGAAUUUCAUAGAGAAACUAGGAUUUAUUAGCAAACAUGAGUUAUAUUCCAGAGGCAUCUCAGAACCCCAGCCAAAC | 10
GGAUUCCGGUUCCGGUGCCGUUGGGCUCGGUUCUCUCCUGAGCUACGUGUCUCUACGCUCUCAAUCCGCCAUCCAACAAACAUGGAUCAGGUAAUGCAGUUUGUGGAGCCCAGCCGGCAG | 0.0494
UAUCCAACUUUCUUGCCACAUUUUGAAUUCCAAGACAUUAUUCCUCCAGAUGACUUCCUAACGAGUGAUGAAGAGCAAGAUUCCGUUUUAUUUGGAACUAUGAGAGGACAAGUUGUUGGA | 0.162

Repeated from above (set 3):
Oligonucleotide | E-score
AAAAATAC | 0.231
CGTGTCGA | -0.179
CTGTAGGC | -0.0476
CACCTCTC | -0.111
CGCGTCAC | -0.119
